# Experimental data of several laboratories.
# Each numbered part is a random draw from the data of one study; scales do not carry over between parts. Positions count from the first letter of the parent shown.

# Sample 1
# Target: RING finger protein unkempt homolog, zinc fingers 1-6, GST-SBP tag (UNK, Homo sapiens, UniProt Q9C0B0, residues 30-357)
# Technique: RNA Bind-n-Seq
# Molecule type: RNA
# Matrix: in vitro
# Concentration: not given
# Notes: RNA with constant flanks, human and mouse sites, ends assumed
# Relative to: input RNA pool
# Reading: higher = stronger binding
# All sequences stand within: GGGAGUUCUACAGUCCGACGAUC … CAACAGAGGAUUGAGCAUCA
# Target sequence (chain): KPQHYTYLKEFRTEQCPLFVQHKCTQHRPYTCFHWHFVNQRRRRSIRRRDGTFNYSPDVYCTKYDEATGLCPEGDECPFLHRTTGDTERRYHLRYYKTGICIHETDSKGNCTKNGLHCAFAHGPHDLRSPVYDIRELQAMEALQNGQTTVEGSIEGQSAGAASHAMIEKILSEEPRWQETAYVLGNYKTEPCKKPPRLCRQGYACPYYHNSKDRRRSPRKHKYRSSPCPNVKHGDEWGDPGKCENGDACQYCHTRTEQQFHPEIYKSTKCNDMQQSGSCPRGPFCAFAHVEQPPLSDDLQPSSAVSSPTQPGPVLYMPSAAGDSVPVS
Strand,bound/input enrichment
UGGCAGCUGGCUUCUUUGGCUCGUUAUUAUGUCUGUGAGAUUUAUUCAUGUUGCUGUGCGUAGUAUAGUUUGUGCAUGUUCAUUGCUAAAAACUUCCAUUGUUUGGCUGUAUCGUAGUUC,0.637 ratio
GUGGGAGAUUUGGUACUCAUCAUCCUAGACGAACGCCAUGACAAUUAUGUGUUAUUUACUGUUAGUCCUACUUUAUAUUUUCUACAUUCAGAGUCUCUACCUGCCCUGGAUCUCAAACCA,3.01 ratio
GAGGAAGGACUGAAGACAGCGGACCCUCAUGACUGCUCUGCAUAUACUGGUUGGACAGGCAUAGCACUUUUGUACCUGCAGCUGUACCGGGUCACUGGUGACCAGACCUACCUGCUUCGA,0.101 ratio
UCUGAGACUUCUUUCUUCCUUCCUUUUUUUUUUUUUGUUUUUUUUUUUAAGAGCCUGUGAUAGUUACUGUGGAGCAGCCAGUUCAUGGGGUCCCCCUUGGGGCCCCACACCCCGUCUCUC,2.57 ratio
AAAAUCAAAAACAUUUUCAUAUAUACCAGAGUACUGUAAAAUCUAGGUUUUUUUCAACAUUAGCAGUAAAUUGAGCACUGUUUACUGUUUCAUUGUACCAUGAAACCAUUUGAUUUUUAC,0.468 ratio
AAGUGACUGAGUAUAAUAUUCCAGAAAAAUUUGAAAUCCUAAUUUCUUCCAUAUUUCAUUAAAUUUUUUGCAUACAGGUCUAACAAAUAUGGAUAUGUAUACACAUCCUCUUUAAUGAAG,0.245 ratio
GAUUUUGAGACGGAGCACAAAUUGGACCCUGUAUUUGAUUCUCCACGGAUGUCCCGCCGUAGUUUGCGCCUGGCCACGACAGCAUGCACCCUGGGGGAUGGUGAGGCUGUGGGUGCCGAC,0.363 ratio
AAUGUGCUGUGUCAAGAGCAGCGGCGGUGACGCAGGUGUAGAGAUUUGUCAGAGCUCAUGUAGUUGUAGUCUUAAGGCCUGUGCAUUUCACUGCGUGGGUUACUCAAUUUAUAAAGCAAA,1.06 ratio
GGCGGCCGGCGCUACAUGAUGAUCGUGGAUCCUGCCAUCAGCAGCUCGGGCCCUGCCGGGAGCUACAGGCCCUACGACGAGGGUCUGCGGAGGGGGGUUUUCAUCACCAACGAGACCGGC,0.0949 ratio

# Sample 2
# Target: Sal-like protein 4, full length isoform B (SALL4, Homo sapiens, UniProt Q9UJQ4-2, residues 1-616)
# Technique: universal PBM
# Molecule type: double-stranded DNA, one strand shown
# Matrix: in vitro
# Concentration: not given
# Notes: 8-mer, flanks averaged, mean of replicates
# Reading: higher = stronger binding
Strand,E-score
GACTCTCA,-0.068
CGGAGTAA,-0.105
CGAATCAA,0.186
CACGGTCC,-0.386
CGTCGAAG,-0.105
AGTTTTGC,0.192
GCGGCTAC,-0.302
AGCGCGGA,-0.207
AGCGGTAG,-0.249
CTGACCCC,-0.266
ATCTGCTA,0.13
ACATCTAA,0.138
ACCCGAAC,-0.0676
ACTACAAG,0.141
ACGACGGA,-0.0829

# Sample 3
# Target: ABI1, truncated, D143A, DHFR fusion (Arabidopsis thaliana)
# Technique: DHFR PCA, deep sequencing
# Matrix: yeast
# Notes: methotrexate growth selection, single substitutions
# Together with: (+)-ABA 17 µM
# Relative to: wild-type fitted maximum
# Reading: higher = stronger binding
# Parent: PYL1, truncated, DHFR fusion (Arabidopsis thaliana); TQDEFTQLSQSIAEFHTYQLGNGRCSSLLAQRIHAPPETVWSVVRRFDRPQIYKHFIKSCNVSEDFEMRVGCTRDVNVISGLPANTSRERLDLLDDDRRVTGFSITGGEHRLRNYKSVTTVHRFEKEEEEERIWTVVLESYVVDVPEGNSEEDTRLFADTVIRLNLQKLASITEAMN
Change,relative binding score [%]
G102I,0.796
V161Q,4.92
D159Q,15.3
A13L,79.2
I52M,79.1
N22F,78.2
F56C,33.5
V78E,15.5
Q19K,84.1
V70Q,54.3
V78G,1.62
V137A,12.1
T6S,85.9
Q2C,79.6
T6K,88.3
D95P,7.14
R132L,82.6
G102H,-7.2
K126D,94.5

# Sample 4
# Target: Hepatocyte nuclear factor 3-alpha (Foxa1, Mus musculus, UniProt P35582, residues 1-468, full length assumed)
# Chain of UniProt P35582 (whole entry, looked up): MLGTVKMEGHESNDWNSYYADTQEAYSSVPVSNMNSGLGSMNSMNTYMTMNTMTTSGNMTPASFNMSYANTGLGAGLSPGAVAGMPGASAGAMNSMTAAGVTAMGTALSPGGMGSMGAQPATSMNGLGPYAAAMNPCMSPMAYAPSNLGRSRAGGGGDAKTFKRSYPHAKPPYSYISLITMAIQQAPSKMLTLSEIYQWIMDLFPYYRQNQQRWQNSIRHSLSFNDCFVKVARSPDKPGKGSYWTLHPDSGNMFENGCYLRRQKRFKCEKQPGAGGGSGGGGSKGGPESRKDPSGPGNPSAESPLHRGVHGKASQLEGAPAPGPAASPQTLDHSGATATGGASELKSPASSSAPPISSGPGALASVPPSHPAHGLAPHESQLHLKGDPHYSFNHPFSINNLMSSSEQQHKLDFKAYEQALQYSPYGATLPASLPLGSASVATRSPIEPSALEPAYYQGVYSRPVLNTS
# Technique: EMSA with sequencing
# Molecule type: double-stranded DNA, one strand shown
# Matrix: in vitro
# Concentration: 10 and 20 nM
# Notes: whole designed probe, mean of two concentrations, ends assumed
# Relative to: negative control set to 0
# Reading: higher = stronger binding
# All sequences stand within: GTGAGCGGTGCCCATTGATGGGGAAC … TTTCACTGGGATCGTGGGGAC
Strand,normalised bound fraction [ratio]
ATCTTCCCCCTCTTCCTTGCCCCACCAGCTCACCTTCCCGGGTATCTGCAAATAAGTATTTATTTTCAAGCCGGCATTCGTTAACCCTCTTCTGGCGCAAACTGCACATTGGTCTGGATGAATCATGGTCCTTTGGCGACGCCAGGCTCCGGGAGAGCAAAGCACCGTGTCAGGGCCATGATCCGGGGTGGCC,0.139
TCTTGTCCTCCCCAGCCACTCTGCAAGGGAGTGGAAGGCGTCTACTACACGTCAGCATCCCTCTTCCTCGGGGCGGGGGTGCACCTTGGAAGTGCAAACATGTCTTATTTATATATGAATGAAGTAATAGATAAGAAGCAATGCCCTCCCAGGAATCACACTGTGACTTCTACCCTTGGGGAGCGGGCAGAGT,0.222
ATTCAACTTAGACATCACAGGCAAAAAATAGAATGGGAAATGTAAAAAGTTTACCAGGTGTAATTGAATGAAGGACAAGTTTCCTAATCTCTTGTTTACTCTGTTGGAGATATATTTAGGAGAATTTCCTAGTCTGCTTTATAACTTCCTCTTTGGCCACTATCTTGACCTGGAATAATTACAAAAAGAATGT,0.325
GGACACAGCCAGAGGCCATGAGTGCTCAGGAGTGCCATAAACTGTGATTTTGAGACTGATAAGGCCAGGCTAAATAGCTTGCTGGGTGTGTCTAGATTGCCTTTTTATATTTGAGGCCTATAAAAAAATAGTGAGAAAATAGCAAGATGCCCAGGAGACAGGTGATCTGATTCAGCCAGGGGGTGGGAGGTGG,-0.0763
TTCTGAAGAGTCAGAGAAGTTCTGAGTCACCTGGAGATCATTCCAGGAGGAATAAAAGACTTCTACATGTAACCAGCTTACATCATATCCAAAATAAACACAAGGAATATTTAAGCATGACCAAAATGCTGTAATTATTTAATGACAAAACCACATATAACAGGAGGTGGGGACAGTTATTATAAGAACTGGC,0.281

# Sample 5
# Target: Ras GTPase-activating protein-binding protein 1, RRM domain (G3BP1, Homo sapiens, UniProt Q13283)
# Chain of UniProt Q13283 (whole entry, looked up): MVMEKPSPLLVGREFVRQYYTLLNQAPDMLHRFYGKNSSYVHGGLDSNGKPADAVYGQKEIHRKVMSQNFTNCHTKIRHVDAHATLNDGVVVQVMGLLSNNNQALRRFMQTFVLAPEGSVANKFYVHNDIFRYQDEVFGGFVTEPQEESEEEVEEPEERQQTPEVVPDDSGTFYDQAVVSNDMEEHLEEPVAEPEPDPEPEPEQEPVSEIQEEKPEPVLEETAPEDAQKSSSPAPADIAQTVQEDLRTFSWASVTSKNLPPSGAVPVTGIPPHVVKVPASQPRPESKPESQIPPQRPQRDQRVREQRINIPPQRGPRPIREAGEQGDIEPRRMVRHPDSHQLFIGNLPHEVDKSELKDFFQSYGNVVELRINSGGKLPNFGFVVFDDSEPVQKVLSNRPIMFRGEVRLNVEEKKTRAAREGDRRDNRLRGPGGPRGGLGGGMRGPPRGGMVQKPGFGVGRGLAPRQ
# Technique: RNA Bind-n-Seq
# Molecule type: RNA
# Matrix: in vitro
# Concentration: 1 µM
# Notes: whole 134-nt RNA, ends assumed
# Together with: 150 mM KCl
# Relative to: input library
# Reading: higher = stronger binding
# All sequences stand within: GGGAGUUCUACAGUCCGACGAUC … UGGAAUUCUCGGGUGUCAAGG
Strand,log2 enrichment
CUGUGCUACACAUCGUAUGUACCGAAUCGGUUUUUUUGGGGUUUUUUUGGGUUUUUUUGGGGAAAGUAUUAUGUUACGCCGUUCGGAUCU,-0.219
UCAUUAGAAGAUCUAAUUGAGAGAGAGGUAACUGGUAUCCUUUUCCUACCAUAAAAACUGAAAGCAGUAUUUAUUGUGAAAUUCUAAUAC,-0.681
ACCAUGCAGGUGGGCAUCUUUGGGAAGUGGGGCAAGGGGGGGAUCGGGAGGGGGGUAACACUUUGGGAACAGGUGGUCCCAGGUCGUUUC,0.446
ACCAUGCAGGUGGGCAUCUUUGGGCAGUGGGGCAAGGGGGGGAUAGGGAGGGGGGUAACACUUUGGGAACAGGUGGUCCCAGGUCGUUUC,-0.447
AAGUCCUGUGCUACACAUCGUAUGUACCGAAUCGGGAAAGGGUUUGGGUUUUUGGGAAAGUAUUAUGUUACGCCGUUCGGAUCUGCACUU,0.528
UUCGAAGAGGUUGUGUACCAGGCCAUGGGUGAGUGCCCGGGCCACCGAGGCCACGUGCCUCCACGAGGGGCUGCCUAUGCCCCACCCUGG,-0.617
GUGCUACACAUCGUAUGUACCGAAUCGGGGAAAAAAAGGGGUUUUUUUGGGGUUUUUUUGGGGAAAGUAUUAUGUUACGCCGUUCGGAUC,1.11
GUCCUGUGCUACACAUCGUAUGUACCGAAUCGGGAAAAAAAGGGUUUGGGUUUUUGGGAAAGUAUUAUGUUACGCCGUUCGGAUCUGCAC,0.185

# Sample 6
# Target: Histone acetyltransferase KAT6A, both winged helices, GST fusion (KAT6A, Homo sapiens, UniProt Q92794, residues 1-181)
# Technique: protein binding microarray
# Molecule type: double-stranded DNA, one strand shown
# Matrix: in vitro
# Concentration: not given
# Notes: 8-mer, flanks averaged, mean of 2 arrays, mostly near background
# Relative to: not given
# Reading: higher = stronger binding
# Construct (chain): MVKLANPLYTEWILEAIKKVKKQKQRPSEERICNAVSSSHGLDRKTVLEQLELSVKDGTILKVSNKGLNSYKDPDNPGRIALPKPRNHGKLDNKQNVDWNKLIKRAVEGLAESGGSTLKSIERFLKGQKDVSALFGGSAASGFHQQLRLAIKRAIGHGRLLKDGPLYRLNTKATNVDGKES
Strand,E-score
GATACTCA,-0.0606
GATCTTCA,-0.013
GAGATTAC,0.0901
CGAGTCTC,-0.0773
CGGTATCC,0.196
ACGACCGG,0.125
GTCCGGTA,0.159
AACAGTGG,-0.223
GTGCTCAA,-0.0363
ACCAAGTA,-0.153
TAGGGCGA,-0.1
AATACTTA,-0.09
TGTTCTAA,-0.025
CAACTGCA,-0.123
GGAAGCAC,-0.0259
